{"data": "Results gathered from unrelated publications", "note": "Parts stem from different laboratories: compare values within a part only.", "sequence of UniProt P11388 (whole entry, looked up)": "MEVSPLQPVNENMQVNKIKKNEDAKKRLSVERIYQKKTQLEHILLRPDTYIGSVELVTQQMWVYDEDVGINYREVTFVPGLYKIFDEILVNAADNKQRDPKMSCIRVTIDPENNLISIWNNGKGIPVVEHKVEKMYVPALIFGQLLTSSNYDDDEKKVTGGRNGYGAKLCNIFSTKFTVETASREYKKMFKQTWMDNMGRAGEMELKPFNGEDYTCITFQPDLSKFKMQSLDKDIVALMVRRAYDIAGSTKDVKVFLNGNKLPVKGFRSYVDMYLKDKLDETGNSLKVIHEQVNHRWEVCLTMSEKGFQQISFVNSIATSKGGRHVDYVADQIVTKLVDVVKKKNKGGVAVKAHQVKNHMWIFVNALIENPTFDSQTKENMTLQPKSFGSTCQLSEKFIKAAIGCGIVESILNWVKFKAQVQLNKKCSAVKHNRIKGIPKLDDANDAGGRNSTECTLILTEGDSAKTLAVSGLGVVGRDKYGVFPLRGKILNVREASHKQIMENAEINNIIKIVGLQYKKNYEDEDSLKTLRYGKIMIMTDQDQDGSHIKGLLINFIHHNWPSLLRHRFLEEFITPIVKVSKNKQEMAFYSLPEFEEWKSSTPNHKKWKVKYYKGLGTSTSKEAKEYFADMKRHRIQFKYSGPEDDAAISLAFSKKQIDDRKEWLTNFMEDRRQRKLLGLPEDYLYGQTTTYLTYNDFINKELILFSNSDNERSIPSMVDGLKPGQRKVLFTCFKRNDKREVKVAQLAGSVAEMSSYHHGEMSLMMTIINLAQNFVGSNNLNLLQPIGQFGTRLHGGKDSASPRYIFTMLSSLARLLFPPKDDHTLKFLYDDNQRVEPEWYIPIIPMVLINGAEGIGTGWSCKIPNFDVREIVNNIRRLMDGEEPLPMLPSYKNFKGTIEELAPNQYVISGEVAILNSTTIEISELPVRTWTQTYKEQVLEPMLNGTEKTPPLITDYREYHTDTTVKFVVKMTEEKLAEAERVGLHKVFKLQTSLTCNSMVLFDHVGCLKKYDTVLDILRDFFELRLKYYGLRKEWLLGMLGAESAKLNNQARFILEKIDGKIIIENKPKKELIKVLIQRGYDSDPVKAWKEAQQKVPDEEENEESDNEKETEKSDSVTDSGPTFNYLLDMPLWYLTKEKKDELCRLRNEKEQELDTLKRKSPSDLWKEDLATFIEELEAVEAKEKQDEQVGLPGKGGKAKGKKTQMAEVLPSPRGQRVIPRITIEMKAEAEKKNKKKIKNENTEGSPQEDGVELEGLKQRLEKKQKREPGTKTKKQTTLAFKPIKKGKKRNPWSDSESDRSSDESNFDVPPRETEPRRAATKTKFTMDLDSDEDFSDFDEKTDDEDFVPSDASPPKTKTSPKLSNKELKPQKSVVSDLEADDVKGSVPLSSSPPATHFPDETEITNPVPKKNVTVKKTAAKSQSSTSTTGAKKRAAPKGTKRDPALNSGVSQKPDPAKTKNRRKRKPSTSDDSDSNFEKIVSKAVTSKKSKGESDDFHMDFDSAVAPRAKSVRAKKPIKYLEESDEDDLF"}
{"data": "Series 1", "SMILES": "Fc1ccccc1Cc1nc(-c2nc(C(F)(F)F)n[nH]2)cn2ccnc12", "host": "healthy volunteers", "notes": "single ascending dose", "reference": "placebo"}
{"dose": "1 mg", "choice reaction time [ms]": -2.32}
{"dose": "50 mg", "choice reaction time [ms]": -25}
{"dose": "10 mg", "choice reaction time [ms]": -26.6}
{"dose": "30 mg", "choice reaction time [ms]": -19.3}
{"data": "Other studies, line by line"}
{"SMILES": "OC[C@H]1O[C@@H](O[C@@H]2[C@@H](O)[C@H](O[C@@H]3[C@@H](O)[C@H](O[C@@H]4[C@@H](O)[C@H](O[C@H]5[C@H](O)[C@@H](CO)OC(O)[C@@H]5O)O[C@H](CO)[C@H]4O)O[C@H](CO)[C@H]3O)O[C@H](CO)[C@H]2O)[C@H](O)[C@@H](O)[C@@H]1O (some centres unmarked)", "target or system": "Bacteroides thetaiotaomicron", "test": "binding, ITC", "setting": "pH 7.0, 25 °C, middle domain", "quantity": "-TΔS", "result": "-13.2 kcal/mol"}
{"SMILES": "N#CCC1CCN(c2nc(Nc3ccc(N4CCC(O)CC4)cc3)c3c(=O)[nH]ncc3n2)CC1", "test": "vs placebo, Olink multiplex", "test system": "human, serum", "setting": "40 mg, day 29, unit not given", "scale": "reference: placebo", "quantity": "osteopontin level difference", "result": -1.19}
{"SMILES": "OC[C@H]1O[C@@H](O[C@@H]2[C@@H](O)[C@H](O[C@@H]3[C@@H](O)[C@H](O[C@H]4[C@H](O)[C@@H](CO)OC(O)[C@@H]4O)O[C@H](CO)[C@H]3O)O[C@H](CO)[C@H]2O)[C@H](O)[C@@H](O)[C@@H]1O (some centres unmarked)", "target or system": "Bacteroides thetaiotaomicron", "test": "binding, ITC", "setting": "pH 7.0, 25 °C, middle domain", "quantity": "-TΔS", "result": "-13.9 kcal/mol"}
{"SMILES": "COc1cc([C@@H]2c3cc4c(cc3[C@@H](O[C@@H]3O[C@@H]5CO[C@@H](C)O[C@H]5[C@H](O)[C@H]3O)[C@H]3COC(=O)[C@H]23)OCO4)cc(OC)c1O", "target or system": "DNA topoisomerase 2-alpha (TOP2A, Homo sapiens, UniProt P11388)", "test": "DNA cleavage", "setting": "200 µM, replicate 1", "quantity": "linear DNA", "result": "35.3%"}
{"note": "Repeated from above (series 1):"}
{"dose": "1 mg", "choice reaction time [ms]": -2.32}
